Results gathered from unrelated publications.
Each line is one published result; not all experiments were run side by side. Numbers after ± are the reported error.
CDK9 with cyclin T1: Cyclin-dependent kinase 9, with cyclin T1 (CDK9, Homo sapiens, UniProt P50750)
Chain of UniProt P50750 (whole entry, looked up): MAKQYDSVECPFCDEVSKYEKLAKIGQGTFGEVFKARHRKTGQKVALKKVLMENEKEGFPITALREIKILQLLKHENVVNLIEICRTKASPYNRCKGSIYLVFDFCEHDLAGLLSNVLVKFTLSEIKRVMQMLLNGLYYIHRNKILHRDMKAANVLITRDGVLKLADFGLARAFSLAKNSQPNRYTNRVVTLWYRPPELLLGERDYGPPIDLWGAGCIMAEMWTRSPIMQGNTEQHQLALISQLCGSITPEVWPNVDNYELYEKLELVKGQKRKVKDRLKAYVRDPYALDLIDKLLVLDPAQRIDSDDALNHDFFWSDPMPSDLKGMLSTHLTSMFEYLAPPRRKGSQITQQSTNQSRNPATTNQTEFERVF
Chain of UniProt P48169 (whole entry, looked up): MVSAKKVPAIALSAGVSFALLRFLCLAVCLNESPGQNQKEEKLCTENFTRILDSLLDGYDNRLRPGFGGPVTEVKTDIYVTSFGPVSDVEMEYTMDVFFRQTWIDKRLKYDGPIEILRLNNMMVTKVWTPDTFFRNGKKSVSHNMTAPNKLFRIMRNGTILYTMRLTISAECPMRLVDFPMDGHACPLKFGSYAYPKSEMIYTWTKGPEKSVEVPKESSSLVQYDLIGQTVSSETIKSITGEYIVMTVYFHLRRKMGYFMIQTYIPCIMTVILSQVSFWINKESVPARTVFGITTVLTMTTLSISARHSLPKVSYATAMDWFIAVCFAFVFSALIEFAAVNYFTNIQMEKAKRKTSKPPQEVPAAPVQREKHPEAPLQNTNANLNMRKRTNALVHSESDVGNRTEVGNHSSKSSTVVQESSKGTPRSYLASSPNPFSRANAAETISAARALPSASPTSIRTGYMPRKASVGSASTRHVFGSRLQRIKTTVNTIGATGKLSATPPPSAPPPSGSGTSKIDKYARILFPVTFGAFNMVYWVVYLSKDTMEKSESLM
Chain of UniProt P47870 (whole entry, looked up): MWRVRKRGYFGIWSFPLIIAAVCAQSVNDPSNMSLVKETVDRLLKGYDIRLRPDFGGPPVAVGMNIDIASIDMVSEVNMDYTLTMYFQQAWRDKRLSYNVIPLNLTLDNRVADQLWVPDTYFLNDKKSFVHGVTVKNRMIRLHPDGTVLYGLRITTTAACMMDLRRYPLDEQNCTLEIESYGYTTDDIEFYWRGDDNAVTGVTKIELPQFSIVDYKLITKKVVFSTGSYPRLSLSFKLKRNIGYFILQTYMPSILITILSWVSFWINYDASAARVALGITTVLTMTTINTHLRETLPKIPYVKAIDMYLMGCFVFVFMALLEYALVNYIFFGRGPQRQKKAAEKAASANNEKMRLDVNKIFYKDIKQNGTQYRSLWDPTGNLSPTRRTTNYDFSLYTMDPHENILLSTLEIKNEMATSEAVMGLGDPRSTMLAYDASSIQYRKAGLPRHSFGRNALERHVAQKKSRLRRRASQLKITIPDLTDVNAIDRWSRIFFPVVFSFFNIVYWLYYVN
Chain of UniProt O14764 (whole entry, looked up): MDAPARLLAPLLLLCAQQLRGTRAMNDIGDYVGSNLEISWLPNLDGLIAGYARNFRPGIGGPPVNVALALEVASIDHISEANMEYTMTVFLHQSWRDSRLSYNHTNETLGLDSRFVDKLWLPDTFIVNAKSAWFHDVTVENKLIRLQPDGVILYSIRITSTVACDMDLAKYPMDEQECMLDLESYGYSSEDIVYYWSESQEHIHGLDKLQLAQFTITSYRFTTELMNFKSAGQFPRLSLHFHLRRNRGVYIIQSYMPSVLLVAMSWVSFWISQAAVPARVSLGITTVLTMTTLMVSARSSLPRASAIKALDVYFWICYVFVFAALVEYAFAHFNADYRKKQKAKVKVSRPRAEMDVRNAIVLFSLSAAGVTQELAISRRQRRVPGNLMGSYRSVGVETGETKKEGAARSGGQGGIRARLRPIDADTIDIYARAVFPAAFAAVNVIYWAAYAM
Chain of UniProt P34995 (whole entry, looked up): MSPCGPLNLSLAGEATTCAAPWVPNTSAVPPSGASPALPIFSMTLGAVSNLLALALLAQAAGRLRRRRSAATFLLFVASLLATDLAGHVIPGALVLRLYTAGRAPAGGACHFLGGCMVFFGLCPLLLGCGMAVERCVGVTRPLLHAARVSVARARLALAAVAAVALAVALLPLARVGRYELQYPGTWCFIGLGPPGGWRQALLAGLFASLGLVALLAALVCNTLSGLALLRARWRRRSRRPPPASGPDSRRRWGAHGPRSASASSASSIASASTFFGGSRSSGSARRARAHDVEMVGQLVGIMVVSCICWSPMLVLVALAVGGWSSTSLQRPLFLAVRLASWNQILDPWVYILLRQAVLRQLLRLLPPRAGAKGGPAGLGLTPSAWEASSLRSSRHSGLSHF
Chain of UniProt A7T1N0 (whole entry, unmodified, looked up): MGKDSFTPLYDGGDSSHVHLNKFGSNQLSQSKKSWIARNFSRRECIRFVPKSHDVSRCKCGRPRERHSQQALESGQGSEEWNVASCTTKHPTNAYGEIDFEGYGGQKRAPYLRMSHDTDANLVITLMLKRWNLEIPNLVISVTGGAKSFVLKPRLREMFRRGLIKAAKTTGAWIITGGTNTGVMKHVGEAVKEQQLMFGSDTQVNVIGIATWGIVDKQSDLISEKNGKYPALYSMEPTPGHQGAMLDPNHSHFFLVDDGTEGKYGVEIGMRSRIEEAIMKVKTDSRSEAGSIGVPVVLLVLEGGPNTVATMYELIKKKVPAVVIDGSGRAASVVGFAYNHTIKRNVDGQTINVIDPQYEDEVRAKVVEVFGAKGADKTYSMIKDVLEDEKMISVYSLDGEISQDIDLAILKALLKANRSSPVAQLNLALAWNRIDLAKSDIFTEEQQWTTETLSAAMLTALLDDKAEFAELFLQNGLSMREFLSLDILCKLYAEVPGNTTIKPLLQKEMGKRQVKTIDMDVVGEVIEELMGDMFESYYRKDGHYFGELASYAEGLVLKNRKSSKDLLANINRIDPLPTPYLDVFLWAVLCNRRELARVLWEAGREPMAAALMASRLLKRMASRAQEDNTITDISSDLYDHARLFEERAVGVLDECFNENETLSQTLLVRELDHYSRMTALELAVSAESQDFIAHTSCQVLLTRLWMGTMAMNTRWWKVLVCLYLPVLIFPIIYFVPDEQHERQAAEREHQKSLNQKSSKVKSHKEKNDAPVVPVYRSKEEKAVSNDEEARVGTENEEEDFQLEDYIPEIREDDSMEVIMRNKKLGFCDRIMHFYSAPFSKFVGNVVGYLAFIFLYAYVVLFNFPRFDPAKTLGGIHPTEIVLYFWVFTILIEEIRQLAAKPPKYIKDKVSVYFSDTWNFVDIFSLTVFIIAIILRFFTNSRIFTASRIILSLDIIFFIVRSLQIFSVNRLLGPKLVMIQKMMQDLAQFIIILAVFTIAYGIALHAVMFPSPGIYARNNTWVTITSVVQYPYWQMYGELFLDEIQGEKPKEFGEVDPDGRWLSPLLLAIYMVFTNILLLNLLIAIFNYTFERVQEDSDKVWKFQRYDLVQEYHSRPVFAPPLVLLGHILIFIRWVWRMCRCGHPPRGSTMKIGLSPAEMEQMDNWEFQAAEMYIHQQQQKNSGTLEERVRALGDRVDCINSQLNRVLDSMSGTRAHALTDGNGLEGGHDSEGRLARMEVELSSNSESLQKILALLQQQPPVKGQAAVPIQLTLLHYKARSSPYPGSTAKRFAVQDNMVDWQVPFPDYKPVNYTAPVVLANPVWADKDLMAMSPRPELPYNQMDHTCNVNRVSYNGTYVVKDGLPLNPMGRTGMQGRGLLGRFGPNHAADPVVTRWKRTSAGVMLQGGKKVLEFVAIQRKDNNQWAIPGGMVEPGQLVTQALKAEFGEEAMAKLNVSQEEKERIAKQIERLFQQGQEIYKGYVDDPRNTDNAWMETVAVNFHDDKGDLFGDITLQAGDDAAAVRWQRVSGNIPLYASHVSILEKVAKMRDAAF
Chain of UniProt P25023 (whole entry, looked up): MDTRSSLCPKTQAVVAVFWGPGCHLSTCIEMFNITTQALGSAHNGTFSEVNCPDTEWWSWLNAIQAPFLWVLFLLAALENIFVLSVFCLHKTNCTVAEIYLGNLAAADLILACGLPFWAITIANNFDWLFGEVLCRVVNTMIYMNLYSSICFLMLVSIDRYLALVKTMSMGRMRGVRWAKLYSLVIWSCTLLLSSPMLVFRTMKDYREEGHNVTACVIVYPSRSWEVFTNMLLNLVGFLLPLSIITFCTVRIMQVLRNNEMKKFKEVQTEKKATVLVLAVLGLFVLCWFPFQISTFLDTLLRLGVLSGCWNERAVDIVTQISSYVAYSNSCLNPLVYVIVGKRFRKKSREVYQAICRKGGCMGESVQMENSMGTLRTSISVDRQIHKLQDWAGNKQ
Chain of UniProt Q13258 (whole entry, looked up): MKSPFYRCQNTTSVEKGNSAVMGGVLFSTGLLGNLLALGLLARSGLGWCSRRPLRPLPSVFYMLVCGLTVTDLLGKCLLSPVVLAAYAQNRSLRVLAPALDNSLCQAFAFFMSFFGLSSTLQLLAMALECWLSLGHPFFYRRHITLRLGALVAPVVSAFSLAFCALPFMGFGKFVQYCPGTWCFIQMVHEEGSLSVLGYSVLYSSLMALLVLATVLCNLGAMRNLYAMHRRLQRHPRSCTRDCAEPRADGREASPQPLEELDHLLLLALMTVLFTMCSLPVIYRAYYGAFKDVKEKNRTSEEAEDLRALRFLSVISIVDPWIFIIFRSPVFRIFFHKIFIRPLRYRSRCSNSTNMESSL
Chain of UniProt O95977 (whole entry, looked up): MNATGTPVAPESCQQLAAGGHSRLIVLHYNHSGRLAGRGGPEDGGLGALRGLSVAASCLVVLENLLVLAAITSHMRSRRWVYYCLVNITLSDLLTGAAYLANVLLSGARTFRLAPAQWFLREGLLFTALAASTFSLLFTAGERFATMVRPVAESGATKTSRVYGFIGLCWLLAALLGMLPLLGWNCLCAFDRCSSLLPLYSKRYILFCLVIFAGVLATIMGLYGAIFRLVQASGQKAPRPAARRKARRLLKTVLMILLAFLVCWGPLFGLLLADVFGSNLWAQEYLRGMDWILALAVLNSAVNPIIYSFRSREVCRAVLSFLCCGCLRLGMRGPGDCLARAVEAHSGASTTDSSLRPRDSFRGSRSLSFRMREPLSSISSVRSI

SMILES	target	assay	system	conditions	EC50
Cc1ccc2ccc3ccc[n+]4c3c2[n+]1[Ir-3]412([c]3ccccc3-c3ccc4ccc(Cl)cc4[n+]31)[c]1ccccc1-c1ccc3ccc(Cl)cc3[n+]12.F[P-](F)(F)(F)(F)F	CDK9 with cyclin T1	enzyme activity, inhibitor			316 nM
CC1(CO)CCCC2(C)C1CCC1(C)c3cocc3CCC12 (stereo not shown)	Androgen receptor (Ar, Rattus norvegicus, UniProt P15207)				1600 nM
O=C(Nc1c(-c2cccs2)nc2ccccn12)c1ccc(Cl)cc1	Gamma-aminobutyric acid receptor subunit alpha-4/beta-2/delta (Homo sapiens, UniProt O14764+P47870+P48169)	positive allosteric modulator, FLIPR membrane potential	HEK293 Flp-In	with: GABA EC20	1410 nM
CCc1nc(-c2ccc(-c3ccc(CCC(N)(CO)CO)cc3)cc2)co1	S1PR4 (Homo sapiens, UniProt O95977)	β-arrestin recruitment, agonist			367 nM
O=C(O)/C=C/c1cccc(NC(=O)c2cc(-c3cccc(F)c3)ccc2F)c1	PTGDR (Homo sapiens, UniProt Q13258)	calcium signal, agonist, fluorescence			> 10000 nM
Nc1ncnc2c1ncn2C1OC(COP(=O)(O)OP(=O)(O)OCC2OC(O)C(O)C2O)C(O)C1O (stereo not shown)	TRPM2, truncated at residue 1242 (Nematostella vectensis, UniProt A7T1N0)	channel activation, activator, inside-out patch clamp		with: 125 µM Ca2+	7400 ± 700 nM
CC(=O)Nc1ccc(SCC(=O)c2cc(C)n(-c3ccc(S(N)(=O)=O)cc3)c2C)cc1	GRM4 (Homo sapiens, UniProt Q14833)	calcium signal, positive allosteric modulator			> 10000 nM
O=C(O)COc1cccc(NC(=O)c2cc(-c3cccc(F)c3)ccc2F)c1	PTGER1 (Homo sapiens, UniProt P34995)	calcium signal, agonist, fluorescence			> 10000 nM
O=C(O)c1ccc(-c2nc(-c3cccc(C(F)(F)F)c3)cs2)cc1	PPARA (Homo sapiens, UniProt Q07869)	binding, TR-FRET			no binding
Cc1cc[n+]2c(c1)-c1cc(C)cc[n+]1[Ir-3]213([c]2ccccc2-c2ccc4ccc(Cl)cc4[n+]21)[c]1ccccc1-c1ccc2ccc(Cl)cc2[n+]13.F[P-](F)(F)(F)(F)F	CDK9 with cyclin T1	enzyme activity, inhibitor			13.6 nM
COc1ccc(CNC(=O)[C@H]2CN(C(=O)CCl)CCN2S(=O)(=O)c2ccc(OC)cc2)cc1	Non-POU domain-containing octamer-binding protein (Homo sapiens, UniProt Q15233)				2200 nM
Cc1[nH]c2ccccc2c(=O)c1-c1ccc(Oc2ccc(OC(F)(F)F)cc2)cc1	cob (Babesia microti, UniProt A0A0K3AQ17)	cytochrome c reductase activity, inhibitor	Babesia microti, mitochondria	with: decylubiquinol	120 ± 12 nM
NC(N)=NCCC[C@H](NC(=O)[C@H](Cc1ccccc1)NC(=O)[C@@H]1CCCN1C(=O)[C@H](CO)NC(=O)[C@H](Cc1ccccc1)NC(=O)CNC(=O)[C@@H]1CCCN1C(=O)[C@@H]1CCCN1C(=O)[C@@H](N)CCCN=C(N)N)C(=O)O	B2 bradykinin receptor (Rattus norvegicus, UniProt P25023)	inositol phosphate accumulation, agonist	primary rat trigeminal ganglion cells	15 min, 37 °C, with: 20 mM LiCl	0.5 nM

Excerpt of the above:
SMILES	target	assay	system	conditions	EC50
Nc1ncnc2c1ncn2C1OC(COP(=O)(O)OP(=O)(O)OCC2OC(O)C(O)C2O)C(O)C1O (stereo not shown)	TRPM2, truncated at residue 1242 (Nematostella vectensis, UniProt A7T1N0)	channel activation, activator, inside-out patch clamp		with: 125 µM Ca2+	7400 ± 700 nM
